Experimental data gathered from unrelated publications.
Parts stem from different laboratories: compare values within a part only. Several values in a cell are separate wells, animals, samples, runs or records.
UniProt P23443, sequence (whole entry, looked up): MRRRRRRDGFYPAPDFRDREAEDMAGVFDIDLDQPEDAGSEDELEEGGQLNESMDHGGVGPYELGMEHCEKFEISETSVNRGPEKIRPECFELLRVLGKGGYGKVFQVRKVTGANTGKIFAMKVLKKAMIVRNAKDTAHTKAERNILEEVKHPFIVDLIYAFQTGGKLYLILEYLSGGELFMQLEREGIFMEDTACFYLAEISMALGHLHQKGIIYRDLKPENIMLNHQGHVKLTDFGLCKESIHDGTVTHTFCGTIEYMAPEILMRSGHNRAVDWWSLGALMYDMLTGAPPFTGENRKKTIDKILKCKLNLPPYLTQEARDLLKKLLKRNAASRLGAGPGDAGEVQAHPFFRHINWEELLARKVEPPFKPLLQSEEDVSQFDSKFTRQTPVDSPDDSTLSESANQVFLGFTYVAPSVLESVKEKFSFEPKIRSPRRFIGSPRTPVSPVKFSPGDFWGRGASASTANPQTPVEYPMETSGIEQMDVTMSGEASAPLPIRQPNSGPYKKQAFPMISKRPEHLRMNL
UniProt Q6PHR2, sequence (whole entry, looked up): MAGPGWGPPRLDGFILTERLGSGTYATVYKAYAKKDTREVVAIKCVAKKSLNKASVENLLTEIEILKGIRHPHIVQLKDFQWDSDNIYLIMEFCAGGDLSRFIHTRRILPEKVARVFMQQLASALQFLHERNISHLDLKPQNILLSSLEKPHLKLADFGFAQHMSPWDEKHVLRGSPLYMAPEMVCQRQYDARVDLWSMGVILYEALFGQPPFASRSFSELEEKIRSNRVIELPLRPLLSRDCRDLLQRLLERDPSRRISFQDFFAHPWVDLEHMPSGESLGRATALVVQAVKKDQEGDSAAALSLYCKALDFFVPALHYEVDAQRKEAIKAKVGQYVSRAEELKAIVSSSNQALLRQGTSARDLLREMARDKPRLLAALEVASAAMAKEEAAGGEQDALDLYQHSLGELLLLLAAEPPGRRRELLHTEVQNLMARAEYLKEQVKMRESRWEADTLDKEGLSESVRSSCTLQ
UniProt P32298, sequence (whole entry, looked up): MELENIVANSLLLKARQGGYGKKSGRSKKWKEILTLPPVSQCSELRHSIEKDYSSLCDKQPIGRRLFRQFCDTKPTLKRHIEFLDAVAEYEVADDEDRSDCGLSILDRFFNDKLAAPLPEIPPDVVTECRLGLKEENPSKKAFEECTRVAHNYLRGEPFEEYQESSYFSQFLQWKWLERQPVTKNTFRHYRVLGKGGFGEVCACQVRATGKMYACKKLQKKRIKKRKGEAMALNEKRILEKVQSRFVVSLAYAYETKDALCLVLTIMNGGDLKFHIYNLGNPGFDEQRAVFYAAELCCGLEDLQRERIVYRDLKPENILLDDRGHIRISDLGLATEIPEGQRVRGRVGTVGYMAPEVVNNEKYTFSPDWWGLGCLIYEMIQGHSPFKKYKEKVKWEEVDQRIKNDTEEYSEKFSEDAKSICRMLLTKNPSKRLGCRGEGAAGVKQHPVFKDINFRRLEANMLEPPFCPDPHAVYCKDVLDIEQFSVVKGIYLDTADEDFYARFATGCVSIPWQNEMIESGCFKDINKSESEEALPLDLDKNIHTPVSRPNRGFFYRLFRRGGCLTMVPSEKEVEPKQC
UniProt P45984, sequence (whole entry, looked up): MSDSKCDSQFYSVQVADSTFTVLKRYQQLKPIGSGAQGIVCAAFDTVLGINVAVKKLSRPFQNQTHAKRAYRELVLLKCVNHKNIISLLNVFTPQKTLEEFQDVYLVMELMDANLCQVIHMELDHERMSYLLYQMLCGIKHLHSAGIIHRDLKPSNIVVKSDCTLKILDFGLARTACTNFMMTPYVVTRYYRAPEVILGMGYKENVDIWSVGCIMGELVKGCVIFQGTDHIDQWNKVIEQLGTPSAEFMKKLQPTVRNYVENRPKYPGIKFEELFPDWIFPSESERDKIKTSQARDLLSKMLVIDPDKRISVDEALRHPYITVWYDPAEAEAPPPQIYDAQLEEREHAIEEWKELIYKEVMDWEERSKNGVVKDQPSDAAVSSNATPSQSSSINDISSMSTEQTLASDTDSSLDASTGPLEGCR

Sample 1
Target: Calcium/calmodulin-dependent protein kinase type II subunit alpha (CAMK2A, Homo sapiens, UniProt Q9UQM7)
UniProt Q9UQM7, sequence (whole entry, looked up): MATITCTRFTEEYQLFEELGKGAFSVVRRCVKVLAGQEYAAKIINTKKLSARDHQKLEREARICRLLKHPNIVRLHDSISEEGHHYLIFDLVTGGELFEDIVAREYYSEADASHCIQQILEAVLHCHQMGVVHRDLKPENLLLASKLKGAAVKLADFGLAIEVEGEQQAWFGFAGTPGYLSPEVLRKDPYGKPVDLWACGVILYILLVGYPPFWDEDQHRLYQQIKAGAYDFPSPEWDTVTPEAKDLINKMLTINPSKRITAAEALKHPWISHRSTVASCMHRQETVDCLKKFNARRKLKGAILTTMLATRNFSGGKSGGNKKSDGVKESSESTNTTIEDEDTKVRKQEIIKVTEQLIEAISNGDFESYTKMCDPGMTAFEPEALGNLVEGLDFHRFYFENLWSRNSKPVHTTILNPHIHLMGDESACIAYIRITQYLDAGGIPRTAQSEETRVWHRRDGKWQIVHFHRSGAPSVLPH
Observed: enzyme activity
Mode: inhibitor
Tested at: 10 µM
SMILES	inhibition
CCN(CC)CCn1c(=O)c(Cc2ccc(OC)cc2)nc2ccccc21	5%
COC(=O)C1=CO[C@@H](O[C@@H]2O[C@H](CO)[C@@H](O)[C@H](O)[C@H]2O)[C@H]2[C@@H]1[C@H](O)C[C@]2(C)O	-15%
O=C1Nc2ccc(Cl)cc2[C@@](C#CC2CC2)(C(F)(F)F)O1	-8%
O=C(O)CCCc1c[nH]c2ccccc12	-7%
CC(N)[C@]12C[C@H]3C[C@H](C[C@H](C3)C1)C2 (stereo partly shown)	-14%
NC[C@@H]1O[C@H](O[C@H]2[C@@H](O)[C@H](O[C@@H]3[C@@H](O)[C@H](N)C[C@H](N)[C@H]3O[C@H]3O[C@H](CN)[C@@H](O)[C@H](O)[C@H]3N)O[C@@H]2CO)[C@H](N)[C@@H](O)[C@@H]1O	-0.11% and 0.36%
OC[C@H]1O[C@@H](Oc2cc3c(O)cc(O)cc3[o+]c2-c2ccc(O)c(O)c2)[C@H](O)[C@@H](O)[C@H]1O	-15%
CC(C)C[C@H](O)C(=O)O	-11%
C=C(C)[C@@H]1CC=C(C)CC1	-2%
CC1(C)CC[C@]2(C(=O)O)CC[C@]3(C)C(=CC[C@@H]4[C@@]5(C)CC[C@H](O[C@@H]6OC[C@H](O)[C@H](O)[C@H]6O[C@@H]6O[C@H](CO)[C@@H](O)[C@H](O)[C@H]6O)[C@@](C)(CO)[C@@H]5CC[C@]43C)[C@@H]2C1	16%
CC(C)CCCC(C)CCCC(C)CCCCC(C)CCCC(C)CCCC(C)C (stereo not shown)	-8%
CO[C@H]1O[C@@H]2O[C@@]3(C)CC[C@H]4[C@H](C)CC[C@@H]([C@H]1C)[C@@]24OO3	3%
CC(C)c1ccc(C(=O)O)cc1	-15%
CC(=O)O[C@@H]1CC[C@@]2(C)[C@@H](CC[C@]3(C)[C@@H]2CC=C2[C@@H]4[C@@H](C)[C@H](C)CC[C@]4(C)CC[C@]23C)[C@@]1(C)C(=O)O	13%
CCCNS(=O)(=O)Nc1ncnc(OCCOc2ncc(Br)cn2)c1-c1ccc(Br)cc1	-18%
CCCC(=O)O[C@]1(C(=O)COC(=O)CC)CC[C@H]2[C@@H]3CCC4=CC(=O)CC[C@]4(C)[C@H]3[C@@H](O)C[C@@]21C	0%
OC[C@H]1O[C@@](CO)(OC[C@@]2(O[C@H]3O[C@H](CO)[C@@H](O)[C@H](O)[C@H]3O)O[C@H](CO)[C@@H](O)[C@@H]2O)[C@@H](O)[C@@H]1O	-20%

Sample 2
Structure (SMILES): Cc1c(NC(=O)c2cc(C(N)=O)nc3cc(F)ccc23)c(C(F)(F)F)nn1Cc1ccc(C(C)(C)C)cc1
Observed: cell-free assay
Technique: competition with immobilised ligand
Tested at: 1 µM
target	remaining binding [%]
TGFBR2 (Homo sapiens, UniProt P37173)	100
FGFR3 (Homo sapiens, UniProt P22607, G697C)	97
Ribosomal protein S6 kinase alpha-1, N-terminal kinase domain (RPS6KA1, Homo sapiens, UniProt Q15418)	100
GRK4 (Homo sapiens, UniProt P32298)	100
MAPK14 (Homo sapiens, UniProt Q16539)	100
NIM1K (Homo sapiens, UniProt Q8IY84)	100
MAPK9 (Homo sapiens, UniProt P45984)	100
ULK3 (Homo sapiens, UniProt Q6PHR2)	97
PRKCH (Homo sapiens, UniProt P24723)	97
STK25 (Homo sapiens, UniProt O00506)	100
MINK1 (Homo sapiens, UniProt Q8N4C8)	90
RPS6KB1 (Homo sapiens, UniProt P23443)	100
EGFR (Homo sapiens, UniProt P00533)	100
STK26 (Homo sapiens, UniProt Q9P289)	100
IRAK4 (Homo sapiens, UniProt Q9NWZ3)	100
MAP3K9 (Homo sapiens, UniProt P80192)	100
PIM3 (Homo sapiens, UniProt Q86V86)	100

Sample 3
Target: Ribosomal protein S6 kinase beta-1 (RPS6KB1, Homo sapiens, UniProt P23443)
Observed: enzyme activity
Mode: inhibitor
Tested at: 0.5 µM
Reference: control
SMILES	remaining activity [%]
NC(=O)c1cccc(-c2cc(Nc3ccc(OC(F)(F)F)cc3)ncn2)c1	109
CNc1cc2c(Nc3cccc(Br)c3)ncnc2cn1	97.4
CCN(CC)CCCCN1c2ccccc2Oc2ccc(Cl)cc21	97.7
O=c1c(-c2ccc(F)cc2)c(-c2ccncc2)[nH]n1-c1ccc(Cl)cc1	89.9
Clc1ccc(Nc2nnc(Cc3ccncc3)c3ccccc23)cc1	102
O=Nc1c(-c2c(O)[nH]c3ccccc23)[nH]c2ccccc12	75.9
N#C/C(=C(/N)SC1C=CC=CC1)c1cccc(C(O)c2ccncc2)c1 (stereo not shown)	102
N#CC(c1ccnc(NCCc2cccnc2)n1)c1nc2ccccc2s1 (stereo not shown)	98.2
FC(F)(F)c1ccc(/C=C/c2nc(COc3ccc(CCCCn4ccnn4)cc3)co2)cc1	105
CC(C)n1cnc2c(Nc3cccc(Cl)c3)nc(NCCO)nc21	93.3
O=C1NC(=O)/C(=C/c2ccc3c(c2)OC(F)(F)O3)S1	85.1
CCCCc1c(-c2ccc(O)cc2)[nH]c2nccnc12	105
O=C(O)/C=C/c1cc(Br)c(Br)c(Br)c1Br	91.4
O=C(c1ccccc1)c1ccc(N2CCOCC2)cc1O	95.3
O=C1c2ccccc2-c2nc3nnnn3nc21	85.8
c1cc(-c2cnn3cc(-c4ccc(OCCN5CCCCC5)cc4)cnc23)ccn1	82.2
C[C@@H](N)[C@H]1CC[C@H](C(=O)Nc2ccncc2)CC1	92.4
CC(C)N(CCC(=O)c1ccc2ccccc2c1)Cc1ccccc1	97.2
NC(=O)c1ccc(-c2nc(-c3ccc4c(c3)OCCO4)c(-c3ccccn3)[nH]2)cc1	101
COc1cc2c(N3CCN(C(=O)Nc4ccc(OC(C)C)cc4)CC3)ncnc2cc1OCCCN1CCCCC1	107
Nc1nc(Nc2ccc(S(N)(=O)=O)cc2)nn1C(=S)Nc1c(F)cccc1F	30
CC(C)(C)c1nc2c3cc[nH]c(=O)c3c3cc(F)ccc3c2[nH]1	74.1

Sample 4
Target: DNA polymerase theta, ATPase domain (POLQ, Homo sapiens, UniProt O75417)
UniProt O75417, sequence (whole entry, unmodified, looked up): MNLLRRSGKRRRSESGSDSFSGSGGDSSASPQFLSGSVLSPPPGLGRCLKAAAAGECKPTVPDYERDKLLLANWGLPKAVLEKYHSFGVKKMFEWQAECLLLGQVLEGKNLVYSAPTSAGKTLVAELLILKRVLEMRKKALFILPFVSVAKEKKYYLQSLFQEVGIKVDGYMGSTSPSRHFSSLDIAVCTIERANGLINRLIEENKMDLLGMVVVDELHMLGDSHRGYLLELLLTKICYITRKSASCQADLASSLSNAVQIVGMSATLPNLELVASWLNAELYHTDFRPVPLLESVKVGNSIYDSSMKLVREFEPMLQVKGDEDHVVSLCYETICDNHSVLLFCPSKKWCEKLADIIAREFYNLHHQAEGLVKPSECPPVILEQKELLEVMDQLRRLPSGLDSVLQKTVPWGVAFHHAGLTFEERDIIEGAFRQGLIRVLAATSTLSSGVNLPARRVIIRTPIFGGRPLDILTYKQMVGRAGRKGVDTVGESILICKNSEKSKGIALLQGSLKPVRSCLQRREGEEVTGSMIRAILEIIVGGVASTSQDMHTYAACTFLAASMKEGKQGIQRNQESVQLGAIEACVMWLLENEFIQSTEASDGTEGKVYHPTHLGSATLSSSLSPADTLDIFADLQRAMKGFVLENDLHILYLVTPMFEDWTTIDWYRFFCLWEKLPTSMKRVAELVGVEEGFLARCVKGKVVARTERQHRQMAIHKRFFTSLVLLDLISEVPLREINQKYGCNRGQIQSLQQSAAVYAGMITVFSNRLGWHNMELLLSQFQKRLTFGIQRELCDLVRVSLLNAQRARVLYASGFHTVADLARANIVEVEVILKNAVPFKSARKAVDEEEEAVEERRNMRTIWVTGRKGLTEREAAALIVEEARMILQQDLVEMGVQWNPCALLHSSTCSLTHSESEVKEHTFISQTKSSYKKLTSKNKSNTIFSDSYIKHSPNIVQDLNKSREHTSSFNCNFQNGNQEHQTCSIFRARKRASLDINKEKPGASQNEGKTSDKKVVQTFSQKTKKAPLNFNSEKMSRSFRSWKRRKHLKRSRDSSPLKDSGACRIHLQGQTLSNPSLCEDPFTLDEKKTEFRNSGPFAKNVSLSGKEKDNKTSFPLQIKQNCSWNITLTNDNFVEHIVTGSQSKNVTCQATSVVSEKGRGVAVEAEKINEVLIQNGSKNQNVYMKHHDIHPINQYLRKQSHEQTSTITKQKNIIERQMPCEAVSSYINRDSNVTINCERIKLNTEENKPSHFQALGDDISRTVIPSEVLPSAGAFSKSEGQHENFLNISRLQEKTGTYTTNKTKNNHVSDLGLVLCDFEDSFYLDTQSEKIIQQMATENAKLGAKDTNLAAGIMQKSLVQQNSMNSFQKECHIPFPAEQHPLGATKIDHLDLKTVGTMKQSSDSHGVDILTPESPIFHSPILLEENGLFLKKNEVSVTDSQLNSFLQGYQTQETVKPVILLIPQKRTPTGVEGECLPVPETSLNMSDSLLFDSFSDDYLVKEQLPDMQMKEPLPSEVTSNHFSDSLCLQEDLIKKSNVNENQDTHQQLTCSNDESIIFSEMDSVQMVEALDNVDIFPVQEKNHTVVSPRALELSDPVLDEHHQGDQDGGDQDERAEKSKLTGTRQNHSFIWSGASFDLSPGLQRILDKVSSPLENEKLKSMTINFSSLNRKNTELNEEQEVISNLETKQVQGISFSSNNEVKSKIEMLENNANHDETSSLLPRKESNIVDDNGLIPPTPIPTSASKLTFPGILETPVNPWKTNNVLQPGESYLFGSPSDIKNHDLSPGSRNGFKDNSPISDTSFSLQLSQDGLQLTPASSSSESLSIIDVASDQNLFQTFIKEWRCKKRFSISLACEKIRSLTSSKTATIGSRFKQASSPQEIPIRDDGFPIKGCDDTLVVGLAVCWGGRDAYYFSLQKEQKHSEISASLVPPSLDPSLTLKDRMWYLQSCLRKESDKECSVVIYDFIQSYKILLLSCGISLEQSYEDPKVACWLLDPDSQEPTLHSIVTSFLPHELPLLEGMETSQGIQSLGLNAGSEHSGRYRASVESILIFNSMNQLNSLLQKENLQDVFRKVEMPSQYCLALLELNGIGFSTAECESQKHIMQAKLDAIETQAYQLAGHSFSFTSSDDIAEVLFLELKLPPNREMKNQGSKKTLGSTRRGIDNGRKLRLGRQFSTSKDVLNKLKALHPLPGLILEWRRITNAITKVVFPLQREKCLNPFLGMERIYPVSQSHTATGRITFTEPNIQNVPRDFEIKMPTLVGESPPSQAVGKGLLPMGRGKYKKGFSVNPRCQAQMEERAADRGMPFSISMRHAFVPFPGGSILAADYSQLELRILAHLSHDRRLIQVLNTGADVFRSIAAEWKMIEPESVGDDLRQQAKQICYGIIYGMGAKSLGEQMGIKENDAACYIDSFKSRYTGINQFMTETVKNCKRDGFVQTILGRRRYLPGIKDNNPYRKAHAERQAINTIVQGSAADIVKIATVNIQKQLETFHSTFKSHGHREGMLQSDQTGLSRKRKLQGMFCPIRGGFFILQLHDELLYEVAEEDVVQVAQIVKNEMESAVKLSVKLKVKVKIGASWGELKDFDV
Observed: enzyme activity
Mode: inhibitor
Tested at: 77 µM
Structure (SMILES)	remaining activity [%]
O=NN(CCCl)C(=O)NCCCl	101
CSC(=N)N	101
CC[N+](C)(C)Cc1ccccc1Br	98.9
COc1cccc2c1C(=O)c1c(O)c3c(c(O)c1C2=O)C[C@@](O)(C(=O)CO)C[C@@H]3O[C@H]1C[C@H](N)[C@H](O[C@@H]2CCCCO2)[C@H](C)O1	89.6
O=c1ccc2cc(O)c(O)cc2o1	101
CC(C)n1c(/C=C/[C@H](O)C[C@H](O)CC(=O)O)c(-c2ccc(F)cc2)c2ccccc21	102
CCN(CC)CC(=O)Nc1c(C)cccc1C	101
CN1CCN(C2=Nc3cc(Cl)ccc3Nc3ccccc32)CC1	101
O[C@@H](COc1cccc2ncccc12)CN1CCN(C2c3ccccc3[C@@H]3[C@H](c4ccccc42)C3(F)F)CC1 (stereo partly shown)	113
O=C(O)c1cn(C2CC2)c2cc(N3CCNCC3)c(F)cc2c1=O	92.4
CCCC(=O)Nc1ccc(OCC(O)CNC(C)C)c(C(C)=O)c1 (stereo not shown)	102
CN1CCN2c3ccccc3Cc3ccccc3C2C1 (stereo not shown)	101
CC(C)NCC(O)COc1ccc(CC(N)=O)cc1 (stereo not shown)	87.1
CCn1nc(C(=O)O)c(=O)c2cc3c(cc21)OCO3	99
